# Published values of several laboratories.
# Numbered parts are unrelated; each lists some results of a single study.
# Sequence of UniProt Q6DT37 (whole entry, looked up): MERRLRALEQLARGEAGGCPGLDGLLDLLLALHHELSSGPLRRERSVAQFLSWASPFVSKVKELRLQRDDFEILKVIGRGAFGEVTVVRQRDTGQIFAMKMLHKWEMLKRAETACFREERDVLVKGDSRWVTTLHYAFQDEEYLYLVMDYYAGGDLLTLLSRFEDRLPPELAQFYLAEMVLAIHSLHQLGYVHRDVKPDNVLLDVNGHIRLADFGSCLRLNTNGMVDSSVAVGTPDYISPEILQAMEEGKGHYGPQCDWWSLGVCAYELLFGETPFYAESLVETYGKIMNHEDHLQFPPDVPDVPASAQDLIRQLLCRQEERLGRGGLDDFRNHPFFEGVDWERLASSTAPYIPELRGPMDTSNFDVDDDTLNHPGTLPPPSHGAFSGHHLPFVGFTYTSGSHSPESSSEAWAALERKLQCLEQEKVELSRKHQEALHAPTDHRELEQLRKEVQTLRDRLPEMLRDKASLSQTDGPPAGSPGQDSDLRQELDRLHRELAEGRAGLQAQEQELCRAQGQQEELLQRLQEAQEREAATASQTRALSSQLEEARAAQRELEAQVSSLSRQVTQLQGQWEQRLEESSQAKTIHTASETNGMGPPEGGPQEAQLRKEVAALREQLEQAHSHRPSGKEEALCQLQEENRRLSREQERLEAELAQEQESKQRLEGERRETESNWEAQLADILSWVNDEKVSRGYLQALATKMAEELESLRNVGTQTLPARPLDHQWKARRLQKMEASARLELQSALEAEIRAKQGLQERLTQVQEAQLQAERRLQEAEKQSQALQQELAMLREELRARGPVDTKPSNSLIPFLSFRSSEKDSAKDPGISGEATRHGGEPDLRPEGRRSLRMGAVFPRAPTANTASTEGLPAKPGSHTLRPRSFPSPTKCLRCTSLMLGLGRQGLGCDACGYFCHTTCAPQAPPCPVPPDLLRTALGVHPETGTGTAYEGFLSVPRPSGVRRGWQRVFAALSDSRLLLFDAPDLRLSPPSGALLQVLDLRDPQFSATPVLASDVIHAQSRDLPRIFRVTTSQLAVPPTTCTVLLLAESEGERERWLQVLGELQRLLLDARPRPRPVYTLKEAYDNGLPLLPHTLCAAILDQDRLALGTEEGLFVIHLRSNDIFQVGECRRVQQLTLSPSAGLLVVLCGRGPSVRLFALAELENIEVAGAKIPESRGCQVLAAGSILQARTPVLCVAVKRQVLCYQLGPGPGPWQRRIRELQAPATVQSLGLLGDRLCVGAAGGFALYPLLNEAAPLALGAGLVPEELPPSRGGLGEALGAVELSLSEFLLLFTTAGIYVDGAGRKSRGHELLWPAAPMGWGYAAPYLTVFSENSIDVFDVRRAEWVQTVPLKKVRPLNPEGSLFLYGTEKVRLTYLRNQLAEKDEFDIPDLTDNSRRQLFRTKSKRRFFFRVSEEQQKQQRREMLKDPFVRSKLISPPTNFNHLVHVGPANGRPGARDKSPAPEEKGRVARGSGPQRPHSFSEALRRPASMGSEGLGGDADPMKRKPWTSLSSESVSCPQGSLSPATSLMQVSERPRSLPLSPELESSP
# Sequence of UniProt P42336 (whole entry, unmodified, looked up): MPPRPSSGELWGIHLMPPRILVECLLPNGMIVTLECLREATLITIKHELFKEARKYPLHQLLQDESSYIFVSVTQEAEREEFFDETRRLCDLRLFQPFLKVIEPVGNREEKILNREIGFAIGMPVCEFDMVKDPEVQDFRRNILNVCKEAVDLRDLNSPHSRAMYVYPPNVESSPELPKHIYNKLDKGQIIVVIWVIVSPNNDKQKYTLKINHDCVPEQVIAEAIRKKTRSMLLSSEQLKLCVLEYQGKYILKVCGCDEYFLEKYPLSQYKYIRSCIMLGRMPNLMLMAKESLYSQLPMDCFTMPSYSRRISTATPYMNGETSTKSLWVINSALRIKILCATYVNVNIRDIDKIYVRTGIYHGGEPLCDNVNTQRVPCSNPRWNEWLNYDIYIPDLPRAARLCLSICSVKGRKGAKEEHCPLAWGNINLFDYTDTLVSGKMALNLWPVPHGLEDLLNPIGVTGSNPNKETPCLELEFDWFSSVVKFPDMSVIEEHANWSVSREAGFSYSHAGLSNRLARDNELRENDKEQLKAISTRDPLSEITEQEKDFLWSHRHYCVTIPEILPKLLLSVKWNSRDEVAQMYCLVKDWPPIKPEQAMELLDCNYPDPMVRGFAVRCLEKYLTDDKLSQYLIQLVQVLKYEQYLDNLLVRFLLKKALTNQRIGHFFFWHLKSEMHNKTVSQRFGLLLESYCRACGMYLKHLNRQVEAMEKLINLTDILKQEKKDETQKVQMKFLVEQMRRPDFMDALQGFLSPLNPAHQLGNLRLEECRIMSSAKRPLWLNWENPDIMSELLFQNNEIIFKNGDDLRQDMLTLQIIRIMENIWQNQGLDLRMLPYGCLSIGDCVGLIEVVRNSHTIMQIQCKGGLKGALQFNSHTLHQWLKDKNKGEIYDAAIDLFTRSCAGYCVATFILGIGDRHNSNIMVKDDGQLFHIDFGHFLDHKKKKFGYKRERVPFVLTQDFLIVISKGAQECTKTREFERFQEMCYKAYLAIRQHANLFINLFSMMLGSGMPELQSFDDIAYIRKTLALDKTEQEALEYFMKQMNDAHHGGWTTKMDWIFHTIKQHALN
# Sequence of UniProt Q96NX5 (whole entry, looked up): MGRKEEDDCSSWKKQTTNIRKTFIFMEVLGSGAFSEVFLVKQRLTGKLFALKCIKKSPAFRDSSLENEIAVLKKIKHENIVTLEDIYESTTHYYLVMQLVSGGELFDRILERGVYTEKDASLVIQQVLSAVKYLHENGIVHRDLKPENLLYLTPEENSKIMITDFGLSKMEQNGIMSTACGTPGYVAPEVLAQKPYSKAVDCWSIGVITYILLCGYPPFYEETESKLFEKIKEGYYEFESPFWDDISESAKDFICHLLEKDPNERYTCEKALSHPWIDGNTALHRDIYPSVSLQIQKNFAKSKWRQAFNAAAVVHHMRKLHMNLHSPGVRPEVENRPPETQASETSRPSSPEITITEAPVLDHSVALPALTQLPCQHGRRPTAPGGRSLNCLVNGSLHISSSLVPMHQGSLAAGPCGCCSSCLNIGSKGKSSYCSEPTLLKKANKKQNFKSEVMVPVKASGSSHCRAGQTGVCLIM
# Sequence of UniProt O15075 (whole entry, looked up): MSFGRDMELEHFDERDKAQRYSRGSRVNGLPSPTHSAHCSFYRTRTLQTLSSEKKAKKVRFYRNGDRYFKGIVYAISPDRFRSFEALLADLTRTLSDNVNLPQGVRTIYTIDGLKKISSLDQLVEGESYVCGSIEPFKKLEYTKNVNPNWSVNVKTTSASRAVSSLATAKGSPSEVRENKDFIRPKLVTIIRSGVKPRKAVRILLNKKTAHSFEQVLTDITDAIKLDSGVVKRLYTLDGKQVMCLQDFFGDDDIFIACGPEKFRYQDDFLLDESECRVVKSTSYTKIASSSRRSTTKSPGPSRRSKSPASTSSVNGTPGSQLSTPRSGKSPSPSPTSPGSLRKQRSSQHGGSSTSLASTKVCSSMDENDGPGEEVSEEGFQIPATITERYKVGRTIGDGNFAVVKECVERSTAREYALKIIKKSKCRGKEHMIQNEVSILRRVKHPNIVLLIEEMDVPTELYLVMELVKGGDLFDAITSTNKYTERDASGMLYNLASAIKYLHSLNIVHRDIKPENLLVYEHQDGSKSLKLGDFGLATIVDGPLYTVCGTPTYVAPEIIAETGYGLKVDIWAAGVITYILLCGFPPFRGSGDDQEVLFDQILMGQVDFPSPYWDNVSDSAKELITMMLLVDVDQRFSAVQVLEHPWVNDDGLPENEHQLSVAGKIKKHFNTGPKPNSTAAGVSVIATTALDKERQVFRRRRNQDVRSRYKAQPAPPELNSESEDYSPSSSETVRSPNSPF
# Sequence of UniProt P37023 (whole entry, looked up): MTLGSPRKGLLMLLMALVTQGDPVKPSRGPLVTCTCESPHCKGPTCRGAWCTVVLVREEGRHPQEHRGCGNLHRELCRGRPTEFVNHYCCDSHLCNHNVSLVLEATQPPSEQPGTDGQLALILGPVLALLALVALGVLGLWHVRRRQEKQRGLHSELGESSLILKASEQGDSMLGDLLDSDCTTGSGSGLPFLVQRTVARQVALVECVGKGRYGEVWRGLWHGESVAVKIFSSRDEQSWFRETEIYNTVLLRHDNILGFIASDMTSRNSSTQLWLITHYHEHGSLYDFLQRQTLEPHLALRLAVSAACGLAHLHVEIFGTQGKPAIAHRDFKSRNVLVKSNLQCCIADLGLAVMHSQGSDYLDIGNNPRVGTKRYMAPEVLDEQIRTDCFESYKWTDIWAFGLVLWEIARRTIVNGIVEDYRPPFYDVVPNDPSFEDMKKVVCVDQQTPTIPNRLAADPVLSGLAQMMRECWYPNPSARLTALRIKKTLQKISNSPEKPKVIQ
# Sequence of UniProt Q9UEE5 (whole entry, looked up): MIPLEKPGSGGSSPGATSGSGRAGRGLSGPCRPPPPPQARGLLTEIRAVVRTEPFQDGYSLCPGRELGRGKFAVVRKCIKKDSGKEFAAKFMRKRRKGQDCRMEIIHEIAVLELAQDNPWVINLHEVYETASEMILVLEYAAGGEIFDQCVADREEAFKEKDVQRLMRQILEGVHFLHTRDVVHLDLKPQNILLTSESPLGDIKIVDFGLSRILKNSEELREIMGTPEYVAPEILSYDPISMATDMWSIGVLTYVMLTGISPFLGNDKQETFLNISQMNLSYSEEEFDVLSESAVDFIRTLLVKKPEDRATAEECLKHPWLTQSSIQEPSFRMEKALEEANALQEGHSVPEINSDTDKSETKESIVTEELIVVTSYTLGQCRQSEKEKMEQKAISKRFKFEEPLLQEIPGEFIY

# Series 1
# Compound: CN(C)c1ncnc(-c2ccc3nc(Nc4cc(CN5CCN(C(=O)CC(F)(F)F)CC5)ccn4)[nH]c3c2)c1Cl
# Concentration: 1 µM
target,observed,technique,remaining binding [%]
"Serine/threonine-protein kinase DCLK1 (DCLK1, Homo sapiens, UniProt O15075)",cell-free assay,competition with immobilised ligand,92
"Cyclin-dependent kinase-like 3 (CDKL3, Homo sapiens, UniProt Q8IVW4)",cell-free assay,competition with immobilised ligand,86
"Activin receptor type-1-like (ACVRL1, Homo sapiens, UniProt P37023)",cell-free assay,competition with immobilised ligand,94
"Receptor-type tyrosine-protein kinase FLT3 (FLT3, Homo sapiens, UniProt P36888, F691L/ITD)",cell-free assay,competition with immobilised ligand,35
"Serine/threonine-protein kinase Nek2 (NEK2, Homo sapiens, UniProt P51955)",cell-free assay,competition with immobilised ligand,86
"Phosphatidylinositol 4-phosphate 5-kinase type-1 gamma (PIP5K1C, Homo sapiens, UniProt O60331)",cell-free assay,competition with immobilised ligand,100
"Serine/threonine-protein kinase MRCK gamma (CDC42BPG, Homo sapiens, UniProt Q6DT37)",,competition binding,100
"Eukaryotic translation initiation factor 2-alpha kinase 1 (EIF2AK1, Homo sapiens, UniProt Q9BQI3)",cell-free assay,competition with immobilised ligand,54
"Casein kinase I isoform gamma-3 (CSNK1G3, Homo sapiens, UniProt Q9Y6M4)",cell-free assay,competition with immobilised ligand,100
"Atypical kinase COQ8A, mitochondrial (COQ8A, Homo sapiens, UniProt Q8NI60)",cell-free assay,competition with immobilised ligand,100
"Calcium/calmodulin-dependent protein kinase type 1G (CAMK1G, Homo sapiens, UniProt Q96NX5)",cell-free assay,competition with immobilised ligand,100
"Dual specificity tyrosine-phosphorylation-regulated kinase 2 (DYRK2, Homo sapiens, UniProt Q92630)",cell-free assay,competition with immobilised ligand,81
"Mitogen-activated protein kinase 1 (MAPK1, Homo sapiens, UniProt P28482)",cell-free assay,competition with immobilised ligand,100
"Serine/threonine-protein kinase RIO1 (RIOK1, Homo sapiens, UniProt Q9BRS2)",cell-free assay,competition with immobilised ligand,100
"Mitogen-activated protein kinase 8 (MAPK8, Homo sapiens, UniProt P45983)",cell-free assay,competition with immobilised ligand,63
"Serine/threonine-protein kinase MAK (MAK, Homo sapiens, UniProt P20794)",cell-free assay,competition with immobilised ligand,100
"Serine/threonine-protein kinase 17A (STK17A, Homo sapiens, UniProt Q9UEE5)",cell-free assay,competition with immobilised ligand,34
"Phosphatidylinositol 4,5-bisphosphate 3-kinase catalytic subunit alpha isoform (PIK3CA, Homo sapiens, UniProt P42336, I800L)",cell-free assay,competition with immobilised ligand,35

# Series 2
# SMILES: CC(C)n1cnc(-c2ccc(F)cc2)c1-c1ncc(C(=O)Nc2ccc(N3CCN(C)CC3)cc2)[nH]1
technique,refers to,host,dose,notes,patients with adverse event
Phase 2a trial,eosinophilia myalgia syndrome,"human, idiopathic pulmonary fibrosis",all compound arms,grade 2,0%
Phase 2a trial,haemoptysis,"human, idiopathic pulmonary fibrosis",30 mg once daily,grade 5,0%
Phase 2a trial,hypertriglyceridaemia,"human, idiopathic pulmonary fibrosis",all compound arms total,grade 4,0%
Phase 2a trial,blood fibrinogen increased,"human, idiopathic pulmonary fibrosis",60 mg once daily,grade 4,0%
Phase 2a trial,hepatic steatosis,"human, idiopathic pulmonary fibrosis",30 mg once daily,grade 4,0%
Phase 2a trial,haemorrhoids,"human, idiopathic pulmonary fibrosis",30 mg once daily,grade 2,0%
Phase 2a trial,blood glucose increased,"human, idiopathic pulmonary fibrosis",all compound arms total,grade 4,0%
,"prostatic calcification, maximum grade 4",idiopathic pulmonary fibrosis patients,dose not given,all compound arms pooled,0%
Phase 2a trial,hepatic steatosis,"human, idiopathic pulmonary fibrosis",30 mg once daily,grade 3,0%
Phase 2a trial,eosinophilia myalgia syndrome,"human, idiopathic pulmonary fibrosis",30 mg once daily,grade 2,0%
Phase 2a trial,hyperuricaemia,"human, idiopathic pulmonary fibrosis",all compound arms total,grade 5,0%
Phase 2a trial,hepatobiliary disorders,"human, idiopathic pulmonary fibrosis",30 mg once daily,grade 3,0%
Phase 2a trial,blood fibrinogen increased,"human, idiopathic pulmonary fibrosis",30 mg once daily,grade 5,0%

# Series 3
# Target: Serine/threonine-protein kinase pim-3 (PIM3, Homo sapiens, UniProt Q86V86)
# Observed: enzyme activity
# Mode: inhibitor
# Concentration: 0.5 µM
# Relative to: control
Structure (SMILES),remaining activity [%]
NC(=O)c1ccc(N(C(N)=O)c2c(F)cccc2F)nc1-c1ccc(F)cc1F,97.7
Nc1nc(Nc2ccc(S(N)(=O)=O)cc2)nn1C(=O)c1c(F)cccc1F,102
O=S(=O)(NCCNC/C=C/c1ccc(Br)cc1)c1cccc2cnccc12,98.3
Cc1cc(Nc2nc(-c3ccccc3)nc3ccccc23)n[nH]1,130
Nc1nccc(-c2c(-c3ccc(F)cc3)ncn2C2CCNCC2)n1,96
Cc1ccc(NC2=CC(=O)c3sc(C)nc3C2=O)cc1,108
N#CC(=C(N)Sc1ccc(N)cc1)c1ccccc1C(F)(F)F,111
O=C1NC(=O)C(c2c[nH]c3ccccc23)=C1c1c[nH]c2ccccc12,32.7
Cc1cncc2cccc(S(=O)(=O)N3CCCN(C(=O)CN)C[C@@H]3C)c12,103
CCCC(=O)Oc1ccc2[nH]c(C(=O)c3cc4ccccc4[nH]3)cc2c1,84.5
COc1ccc(S(=O)(=O)N(CCO)c2ccccc2CN(C)CC=Cc2ccc(Cl)cc2)cc1,105
O=C1Cc2c([nH]c3ccc([N+](=O)[O-])cc23)-c2ccccc2N1,62.3
CC(C)(C)n1nc(Cc2cccc3ccccc23)c2c(N)ncnc21,99.4
CC(=O)c1ccc(N2CCOCC2)cc1O,115
CCc1[nH]c(-c2ccc(OC)cc2)nc1-c1ccncc1,112
Oc1ccc(Nc2nc(-c3ccc(Cl)cc3)cs2)cc1,114
Fc1ccc(-c2nc3n(c2-c2ccncc2)CCS3)cc1,105
CC#CC(=O)Nc1cc2c(Nc3ccc(F)c(Cl)c3)ncnc2cn1,89.1
Nc1ncnc2c1cnn2-c1ccccc1,91.4
CSc1nc(-c2ccnc(N[C@@H](C)c3ccccc3)c2)c(-c2ccc(F)cc2)[nH]1 (racemic),95.5

# Series 4
# Compound: COc1ccc(-c2c(Nc3ccccn3)[nH]c3c(C4=CCCCC4)c(-c4ccccc4)nn3c2=O)cc1
# Sample: plasma
# Route: oral
technique,host,dose,time,notes,"plasma concentration, median"
,human patients,100 mg once daily,0.5 h,cycle 1,4830 ng/mL
LC-MS/MS,human,200 mg twice daily,8 h,,9530 ng/mL
,human patients,150 mg once daily,6 h,cycle 1,4090 ng/mL
LC-MS/MS,human,50 mg once daily,0.5 h,cycle 1,1160 ng/mL
,human patients,200 mg once daily,0 h,cycle 1,6600 ng/mL
,human patients,200 mg once daily,24 h,cycle 1,6980 ng/mL
LC-MS/MS,human,200 mg twice daily,24 h,,10400 ng/mL
LC-MS/MS,human,50 mg once daily,8 h,cycle 1,1540 ng/mL
LC-MS/MS,human,200 mg twice daily,0 h,,10500 ng/mL
,human patients,150 mg once daily,8 h,cycle 1,3970 ng/mL
,human patients,100 mg once daily,3 h,cycle 1,5470 ng/mL
